Measurements of several laboratories.
Numbered parts are unrelated; each lists some results of a single study. Changes are numbered by the printed parent chain.

Series 1
Target: Histone acetyltransferase KAT6A, winged helix 2, GST fusion (KAT6A, Homo sapiens, UniProt Q92794, residues 85-181)
Method: protein binding microarray
Form: double-stranded DNA, one strand shown
Medium: in vitro
Tested at: not given
Setting: 8-mer, flanks averaged, mean of 2 arrays, mostly near background
Relative to: not given
Direction: higher = stronger binding
Target sequence (chain): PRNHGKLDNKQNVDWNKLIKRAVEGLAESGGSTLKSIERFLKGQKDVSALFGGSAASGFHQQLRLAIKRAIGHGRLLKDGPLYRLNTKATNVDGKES
Sequence | E-score
AACAGTGT | -0.168
CTTCATGC | -0.0893
CGACCGCG | 0.225

Series 2
Target: CCNB1, cyclin fold, Cln2 fusion (human)
Method: yeast growth competition, sequencing
Medium: yeast
Setting: weak parent motif
Relative to: not given
Direction: higher = stronger binding
Starting sequence: CDC6 docking peptide (human); TLKGRRLVFDNQL
Change | normalised enrichment score
D10Q | 0.493
T1E | 0.323
L7Y | 1.63

Series 3
Target: RING finger protein unkempt homolog, zinc fingers 1-6, GST-SBP tag (UNK, Homo sapiens, UniProt Q9C0B0, residues 30-357)
UniProt Q9C0B0, sequence (30-357, looked up): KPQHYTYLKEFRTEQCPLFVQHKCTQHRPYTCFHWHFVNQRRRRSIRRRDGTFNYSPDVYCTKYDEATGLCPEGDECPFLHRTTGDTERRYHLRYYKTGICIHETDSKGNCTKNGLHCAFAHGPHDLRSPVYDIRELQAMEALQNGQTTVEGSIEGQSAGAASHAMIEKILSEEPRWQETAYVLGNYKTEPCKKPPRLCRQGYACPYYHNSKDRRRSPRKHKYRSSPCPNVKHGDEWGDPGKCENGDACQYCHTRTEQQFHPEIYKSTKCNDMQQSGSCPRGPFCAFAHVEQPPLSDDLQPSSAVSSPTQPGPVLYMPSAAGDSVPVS
Method: RNA Bind-n-Seq
Form: RNA
Medium: in vitro
Tested at: not given
Setting: RNA with constant flanks, ends assumed
Relative to: input RNA pool
Direction: higher = stronger binding
Sequence | bound/input enrichment
GGGAGUUCUACAGUCCGACGAUCCGUCUUCUGUCUGCCUUCCCUGUCUCCCUAACUCCCCCUUCCUUCCCAUUGUCUUUUUGGCCGGUUGGAUUCUGGGGACUAAACUGCAGUUCCUCAUAAAAAUCCCCAUUCCUACCCUUUCAACAGAGGAUUGAGCAUCA | 0.322 ratio
GGGAGUUCUACAGUCCGACGAUCCUUGUGGAGAAGGUGCUUCCUGGGCACUUCAAUACCUUUGGUGCCGAAAGGCUGUUUCGCUCCGCUUCUAACUAUAUUUCAAAAGCUGGGAUAUGCCACAAAGUGUCUACUUUUGCCAUGCAACAGAGGAUUGAGCAUCA | 0.105 ratio
GGGAGUUCUACAGUCCGACGAUCAGAGCCCAGGACGUUGAUGCUACAAACCCAAAUUAUGAAAUUAUGUGUAUGAUCAGAGACUUCCGAGGAAGUUUGGAUUAUAGACCAUUAACAACAGCAGAUCCUAUUGAUGAACAUAGGCAACAGAGGAUUGAGCAUCA | 0.477 ratio

Mixed results
Substance | target | test | system | setting | how to read | measurement | result
PhoQ, residues 284 288 289 292 302 303 SLANIV | PhoP, residues 12 14 15 18 19 SPWRL (Escherichia coli, UniProt P23836) | Sort-seq, measured: YFP reporter | E. coli | PhoQ-PhoP variant library, added: 10 µM Mg2+ | relative to: high Mg2+ state, higher = stronger signaling | fold induction | 2.7

A few entries again (series 3):
Sequence | bound/input enrichment
GGGAGUUCUACAGUCCGACGAUCAGAGCCCAGGACGUUGAUGCUACAAACCCAAAUUAUGAAAUUAUGUGUAUGAUCAGAGACUUCCGAGGAAGUUUGGAUUAUAGACCAUUAACAACAGCAGAUCCUAUUGAUGAACAUAGGCAACAGAGGAUUGAGCAUCA | 0.477 ratio
